Results of several laboratories.
Numbered parts are unrelated; each lists some results of a single study.
Sequence of UniProt Q9P286 (whole entry, looked up): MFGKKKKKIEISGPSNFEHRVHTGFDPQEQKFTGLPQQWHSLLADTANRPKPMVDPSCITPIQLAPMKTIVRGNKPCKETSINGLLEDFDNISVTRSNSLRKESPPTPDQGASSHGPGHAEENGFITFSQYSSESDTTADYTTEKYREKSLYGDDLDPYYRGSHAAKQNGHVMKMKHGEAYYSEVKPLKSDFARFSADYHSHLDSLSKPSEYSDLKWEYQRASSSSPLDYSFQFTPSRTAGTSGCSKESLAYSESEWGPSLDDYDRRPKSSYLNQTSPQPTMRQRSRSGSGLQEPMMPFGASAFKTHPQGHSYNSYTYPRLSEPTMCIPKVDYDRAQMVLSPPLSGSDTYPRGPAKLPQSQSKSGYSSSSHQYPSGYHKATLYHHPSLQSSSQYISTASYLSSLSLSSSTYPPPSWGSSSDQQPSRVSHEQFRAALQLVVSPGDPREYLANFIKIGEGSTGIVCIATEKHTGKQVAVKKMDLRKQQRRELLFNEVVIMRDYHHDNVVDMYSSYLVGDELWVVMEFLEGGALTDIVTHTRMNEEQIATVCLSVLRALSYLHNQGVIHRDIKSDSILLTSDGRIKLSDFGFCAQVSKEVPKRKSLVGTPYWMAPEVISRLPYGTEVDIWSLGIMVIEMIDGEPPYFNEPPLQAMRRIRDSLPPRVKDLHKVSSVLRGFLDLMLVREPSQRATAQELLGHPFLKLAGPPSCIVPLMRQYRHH
Sequence of UniProt P49760 (whole entry, looked up): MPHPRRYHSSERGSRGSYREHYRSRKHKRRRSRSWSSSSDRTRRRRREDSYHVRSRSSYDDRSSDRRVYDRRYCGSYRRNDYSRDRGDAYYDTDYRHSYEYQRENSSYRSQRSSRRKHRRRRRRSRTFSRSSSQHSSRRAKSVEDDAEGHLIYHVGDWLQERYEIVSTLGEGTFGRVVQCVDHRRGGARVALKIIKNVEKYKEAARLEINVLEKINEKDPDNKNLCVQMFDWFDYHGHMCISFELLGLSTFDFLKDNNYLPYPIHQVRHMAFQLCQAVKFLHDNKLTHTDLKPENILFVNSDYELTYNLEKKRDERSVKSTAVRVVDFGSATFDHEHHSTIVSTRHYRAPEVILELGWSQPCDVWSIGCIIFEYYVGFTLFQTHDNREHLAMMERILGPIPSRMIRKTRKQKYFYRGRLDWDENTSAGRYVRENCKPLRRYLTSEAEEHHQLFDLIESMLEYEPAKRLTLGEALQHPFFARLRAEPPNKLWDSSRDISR
Sequence of UniProt P17948 (whole entry, looked up): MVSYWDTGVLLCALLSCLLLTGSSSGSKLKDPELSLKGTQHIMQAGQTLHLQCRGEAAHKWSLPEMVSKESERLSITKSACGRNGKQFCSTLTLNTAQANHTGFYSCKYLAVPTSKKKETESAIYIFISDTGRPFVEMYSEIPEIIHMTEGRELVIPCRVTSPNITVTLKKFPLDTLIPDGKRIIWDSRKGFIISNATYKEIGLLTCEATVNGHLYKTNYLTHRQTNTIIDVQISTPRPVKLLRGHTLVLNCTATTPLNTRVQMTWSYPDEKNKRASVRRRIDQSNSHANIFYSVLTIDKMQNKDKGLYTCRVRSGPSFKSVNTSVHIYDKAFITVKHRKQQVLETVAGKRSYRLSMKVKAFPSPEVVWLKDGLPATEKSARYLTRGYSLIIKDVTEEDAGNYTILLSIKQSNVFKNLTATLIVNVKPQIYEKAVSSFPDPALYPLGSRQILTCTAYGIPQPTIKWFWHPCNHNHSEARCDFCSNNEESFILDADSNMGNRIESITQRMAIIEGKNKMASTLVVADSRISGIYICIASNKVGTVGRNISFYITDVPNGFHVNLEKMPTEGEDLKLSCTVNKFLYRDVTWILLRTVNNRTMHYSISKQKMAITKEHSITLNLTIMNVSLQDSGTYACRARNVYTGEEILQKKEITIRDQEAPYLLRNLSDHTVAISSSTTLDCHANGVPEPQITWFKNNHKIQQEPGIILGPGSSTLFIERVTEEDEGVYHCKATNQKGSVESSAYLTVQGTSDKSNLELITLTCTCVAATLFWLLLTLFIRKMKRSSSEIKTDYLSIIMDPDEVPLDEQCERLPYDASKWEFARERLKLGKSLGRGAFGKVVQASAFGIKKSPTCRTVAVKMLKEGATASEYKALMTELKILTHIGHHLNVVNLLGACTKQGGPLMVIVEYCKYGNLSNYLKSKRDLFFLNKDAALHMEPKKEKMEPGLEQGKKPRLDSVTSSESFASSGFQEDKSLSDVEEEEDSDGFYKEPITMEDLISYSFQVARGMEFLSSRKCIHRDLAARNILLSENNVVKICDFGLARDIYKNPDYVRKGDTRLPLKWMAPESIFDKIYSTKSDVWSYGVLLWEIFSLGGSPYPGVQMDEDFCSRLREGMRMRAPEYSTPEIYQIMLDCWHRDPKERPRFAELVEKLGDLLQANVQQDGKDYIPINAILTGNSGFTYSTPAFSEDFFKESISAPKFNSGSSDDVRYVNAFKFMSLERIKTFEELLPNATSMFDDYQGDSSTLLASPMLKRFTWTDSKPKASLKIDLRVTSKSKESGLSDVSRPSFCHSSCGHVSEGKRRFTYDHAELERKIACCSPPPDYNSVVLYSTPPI
Sequence of UniProt P37023 (whole entry, looked up): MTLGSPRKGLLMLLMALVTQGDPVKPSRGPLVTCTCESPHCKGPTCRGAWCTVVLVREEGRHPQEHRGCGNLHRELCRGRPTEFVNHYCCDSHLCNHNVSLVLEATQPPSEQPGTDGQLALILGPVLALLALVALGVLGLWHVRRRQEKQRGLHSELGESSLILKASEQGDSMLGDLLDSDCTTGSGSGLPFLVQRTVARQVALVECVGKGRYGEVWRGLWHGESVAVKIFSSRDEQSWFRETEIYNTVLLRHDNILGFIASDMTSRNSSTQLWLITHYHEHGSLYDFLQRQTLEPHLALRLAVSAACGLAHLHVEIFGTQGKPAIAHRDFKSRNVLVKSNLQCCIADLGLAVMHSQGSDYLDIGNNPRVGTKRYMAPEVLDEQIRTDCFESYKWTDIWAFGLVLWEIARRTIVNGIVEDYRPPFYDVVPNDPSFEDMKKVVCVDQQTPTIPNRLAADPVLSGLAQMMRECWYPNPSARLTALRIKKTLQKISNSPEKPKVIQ
Sequence of UniProt P29317 (whole entry, looked up): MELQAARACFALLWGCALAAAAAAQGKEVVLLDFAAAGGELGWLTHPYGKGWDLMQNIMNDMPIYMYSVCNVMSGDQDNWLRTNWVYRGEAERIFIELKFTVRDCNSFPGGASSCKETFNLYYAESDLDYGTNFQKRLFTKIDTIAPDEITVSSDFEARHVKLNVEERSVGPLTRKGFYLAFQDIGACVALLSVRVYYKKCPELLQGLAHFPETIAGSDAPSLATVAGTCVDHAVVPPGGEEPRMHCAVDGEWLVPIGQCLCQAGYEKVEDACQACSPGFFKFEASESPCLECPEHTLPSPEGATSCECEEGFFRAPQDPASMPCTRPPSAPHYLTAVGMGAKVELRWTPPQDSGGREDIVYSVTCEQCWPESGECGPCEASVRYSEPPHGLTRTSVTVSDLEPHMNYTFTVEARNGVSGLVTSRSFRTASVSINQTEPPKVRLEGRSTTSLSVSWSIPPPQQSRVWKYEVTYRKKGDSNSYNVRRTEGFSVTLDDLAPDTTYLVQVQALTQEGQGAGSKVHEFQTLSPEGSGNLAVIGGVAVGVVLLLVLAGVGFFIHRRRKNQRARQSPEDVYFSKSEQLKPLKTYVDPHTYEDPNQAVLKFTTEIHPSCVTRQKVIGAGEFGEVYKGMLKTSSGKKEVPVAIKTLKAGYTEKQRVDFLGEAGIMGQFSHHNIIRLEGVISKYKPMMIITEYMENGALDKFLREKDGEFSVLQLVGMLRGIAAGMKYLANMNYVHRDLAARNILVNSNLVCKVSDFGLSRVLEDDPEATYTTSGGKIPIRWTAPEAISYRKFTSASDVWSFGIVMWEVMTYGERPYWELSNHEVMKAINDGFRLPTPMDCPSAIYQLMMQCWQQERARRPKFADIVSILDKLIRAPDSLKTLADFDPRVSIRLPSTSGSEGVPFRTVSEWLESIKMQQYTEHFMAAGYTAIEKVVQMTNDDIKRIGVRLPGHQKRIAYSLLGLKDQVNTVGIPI
Sequence of UniProt P48730 (whole entry, looked up): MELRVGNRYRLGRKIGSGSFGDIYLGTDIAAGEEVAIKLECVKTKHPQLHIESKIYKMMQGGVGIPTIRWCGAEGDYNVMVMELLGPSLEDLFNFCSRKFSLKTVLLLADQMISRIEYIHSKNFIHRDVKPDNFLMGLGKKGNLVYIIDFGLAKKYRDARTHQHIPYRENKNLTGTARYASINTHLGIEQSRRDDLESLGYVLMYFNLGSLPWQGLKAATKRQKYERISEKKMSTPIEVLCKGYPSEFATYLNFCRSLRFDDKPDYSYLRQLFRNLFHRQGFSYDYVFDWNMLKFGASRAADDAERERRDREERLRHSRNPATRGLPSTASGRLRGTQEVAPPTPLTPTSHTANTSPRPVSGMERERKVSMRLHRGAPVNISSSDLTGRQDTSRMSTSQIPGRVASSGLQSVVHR
Sequence of UniProt P56817 (whole entry, looked up): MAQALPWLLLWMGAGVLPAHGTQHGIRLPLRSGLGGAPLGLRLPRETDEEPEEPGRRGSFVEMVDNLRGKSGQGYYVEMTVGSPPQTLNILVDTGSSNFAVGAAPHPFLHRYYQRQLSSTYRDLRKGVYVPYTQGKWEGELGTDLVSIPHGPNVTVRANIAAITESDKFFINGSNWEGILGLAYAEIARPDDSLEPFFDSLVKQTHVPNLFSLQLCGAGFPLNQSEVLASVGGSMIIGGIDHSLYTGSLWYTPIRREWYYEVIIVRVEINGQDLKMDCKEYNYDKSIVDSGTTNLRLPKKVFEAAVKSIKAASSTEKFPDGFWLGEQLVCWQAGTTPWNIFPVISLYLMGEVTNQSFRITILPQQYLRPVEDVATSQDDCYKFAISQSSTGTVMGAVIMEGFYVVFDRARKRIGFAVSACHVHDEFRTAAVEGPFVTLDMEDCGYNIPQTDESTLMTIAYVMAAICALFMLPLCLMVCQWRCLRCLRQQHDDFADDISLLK

Sample 1
Target: Diamine acetyltransferase 1 (Homo sapiens, UniProt P21673)
Action: inhibitor
Concentration: 10 µM
Relative to: control
Construct (P21673 1-171): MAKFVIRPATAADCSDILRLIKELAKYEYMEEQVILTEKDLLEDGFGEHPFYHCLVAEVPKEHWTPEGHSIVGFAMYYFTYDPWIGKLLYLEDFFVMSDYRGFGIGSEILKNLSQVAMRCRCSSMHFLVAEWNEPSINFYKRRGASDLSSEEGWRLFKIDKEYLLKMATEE
SMILES | remaining activity
Cc1c([C@H](C)[C@@H]2NC[C@@H](C)C[C@H]2O)ccc2c1C[C@H]1[C@H]2CC=C2C[C@@H](O)CC[C@@]21C | 113%
CC(C)=CCOc1c2occc2cc2ccc(=O)oc12 | 95.3%
CC1(C)OC1COc1c2occc2cc2ccc(=O)oc12 (centres unmarked) | 103%
CC[C@H]1CN2CCc3c([nH]c4ccccc34)[C@H]2C[C@@H]1/C(=C\OC)C(=O)OC | 90.5%
CC1(C)[C@H](C(=O)O[C@H](C#N)c2cccc(Oc3ccccc3)c2)[C@@H]1C=C(Br)Br | 101%
COC(=O)C1=CCCN(C)C1 | 105%
O=Cc1ccccc1 | 85.4%

Sample 2
SMILES: CN(C)C(=O)COC(=O)Cc1ccc(OC(=O)c2ccc(NC(=N)N)cc2)cc1
Concentration: 10 µM
target | read-out | action | inhibition
Beta-secretase 1 (BACE1, Homo sapiens, UniProt P56817) | – | – | 4%
Prolyl endopeptidase (PREP, Homo sapiens, UniProt P48147) | – | – | 31%
Genome polyprotein, NS3 protease (Hepatitis C virus genotype 1b, UniProt Q9WMX2, R1181Q) | – | – | 5%
Genome polyprotein, NS3 protease (Hepatitis C virus genotype 1b, UniProt Q9WMX2, R1181K) | – | – | 1%
Genome polyprotein (Hepatitis C virus genotype 1b, UniProt Q9WMX2) | protease activity | inhibitor | 11%

Sample 3
Cell line: HEK-293T-ACE2-TMPRSS2
Method: cell count
Concentration: concentration not given
Structure (SMILES) | viability [%]
Cc1nc(-c2ccc(C)c(S(=O)(=O)N3CCC(C(=O)NC4CCCc5ccccc54)CC3)c2)no1 (centres unmarked) | 66
CCc1nc(=O)c(-c2ccccc2)c(C)n1-c1ccccc1 | 73
O=C(Nc1nc2c(s1)CN(Cc1ccccc1)CC2)c1ccc2ccccc2c1 | 69
c1ccc(-c2cc(CN3CCN(c4ncnc5ccccc45)CC3)on2)cc1 | 87
COc1ccc(NC(=O)c2nc(S(=O)(=O)Cc3ccccc3C)ncc2Cl)cc1 | 72
CCc1ccc(S(=O)(=O)N2Cc3nn4c(C)c(C)c(C)nc4c3C2)cc1 | 108
C=C1CC2(C)C(=CC1=O)CCC1C2CCC2(C)C(OC(=O)OCC)CCC12 (centres unmarked) | 72
CC(=O)c1cc(CN2CCOC(Cc3ccccc3)C2)cs1 (centres unmarked) | 107
Cc1ccc(-c2cn(CC3CCN(c4cc(C)nc(N)n4)CC3)nn2)cc1 | 67
Cc1c(C(=O)OCC(=O)NC(=O)NCc2ccco2)oc2c1ccc1ccccc12 | 83
Nc1nc(NCCNc2ccccc2)cc(N2CCOCC2)n1 | 93
CC(NCc1ccccc1)C(=O)NCC(=O)N1CCCc2ccccc21 (centres unmarked) | 68
CCCCOc1ccc(C(=O)Nc2nc3ccc(S(=O)(=O)N(C)C)cc3s2)cc1 | 74
Cc1csc(NC(=O)c2cn(-c3ccc(-c4noc(C5CC5)n4)cc3)nc2C)n1 | 65
COc1ccc(Cl)cc1NC(=O)Cn1c(C(=O)c2cccc(F)c2)nc2ccccc21 | 78
Cc1ccc(NS(=O)(=O)c2ccc3[nH]c(-c4ccccc4)nc3c2)c(Br)c1 | 77
CN(CC1COc2ccccc2O1)c1ccc(-c2nc(C3CC3)no2)cn1 (centres unmarked) | 109
Cc1cc(C(=O)N2CCCC(C(=O)Nc3cccc(-c4cc5ccccc5[nH]4)c3)C2)nn1C (centres unmarked) | 76
O=C(c1ccc(Br)cc1)N1N=CCC1(O)C(F)(F)F (centres unmarked) | 256
Cc1ccc(NC(=O)c2nc(S(=O)(=O)Cc3ccccc3)ncc2Cl)cc1C | 84
COc1ccccc1C(=O)N1C2CCC1c1cnc(-c3ccc(F)cc3)nc1C2 (centres unmarked) | 71
CSc1nnc(Sc2ncc([N+](=O)[O-])s2)s1 | 72
CC1CCN(C(c2ccccc2)c2oc3ccccc3c2NC(=O)c2ccco2)CC1 (centres unmarked) | 89
CCOC(=O)c1c(CN(CC)CC)n(-c2ccccc2)c2ccc(O)cc12 | 73
CS(=O)(=O)c1ncc(Cl)c(C(=O)Nc2cccc(I)c2)n1 | 68

Sample 4
Compound: COc1ccc2c(c[n+](C)c3c4cc5c(cc4ccc23)OCO5)c1OC
Read-out: enzyme activity
Action: inhibitor
Concentration: 0.5 µM
Relative to: control
target | remaining activity [%]
Tyrosine-protein kinase JAK1 (JAK1, Homo sapiens, UniProt P23458) | 88.5
Ribosomal protein S6 kinase beta-2 (RPS6KB2, Homo sapiens, UniProt Q9UBS0) | 99.6
Ephrin type-A receptor 2 (EPHA2, Homo sapiens, UniProt P29317) | 97.3
Calcium/calmodulin-dependent protein kinase type 1 (CAMK1, Homo sapiens, UniProt Q14012) | 81.4
Cyclin-dependent kinase 5, with p35 (CDK5, Homo sapiens, UniProt Q00535) | 95.7
Serine/threonine-protein kinase MARK1 (MARK1, Homo sapiens, UniProt Q9P0L2) | 91.4
Dual specificity protein kinase CLK1 (CLK1, Homo sapiens, UniProt P49759) | 101
Dual specificity tyrosine-phosphorylation-regulated kinase 1A (DYRK1A, Homo sapiens, UniProt Q13627) | 103
Activin receptor type-1-like (ACVRL1, Homo sapiens, UniProt P37023) | 99.2
Protein kinase C zeta type (PRKCZ, Homo sapiens, UniProt Q05513) | 97.7
Serine/threonine-protein kinase SIK2 (SIK2, Homo sapiens, UniProt Q9H0K1) | 95.5
Dual specificity protein kinase CLK2 (CLK2, Homo sapiens, UniProt P49760) | 90.6
Ribosomal protein S6 kinase alpha-3 (RPS6KA3, Homo sapiens, UniProt P51812) | 94.6
Cyclin-dependent kinase 2, with cyclin E (CDK2, Homo sapiens, UniProt P24941) | 88.9
Casein kinase I isoform delta (CSNK1D, Homo sapiens, UniProt P48730) | 92.9
Tyrosine-protein kinase Tec (TEC, Homo sapiens, UniProt P42680) | 116
Muscle, skeletal receptor tyrosine-protein kinase (MUSK, Homo sapiens, UniProt O15146) | 98.2
Vascular endothelial growth factor receptor 1 (FLT1, Homo sapiens, UniProt P17948) | 88.8
Mitogen-activated protein kinase kinase kinase 20 (MAP3K20, Homo sapiens, UniProt Q9NYL2) | 94.7
Calcium/calmodulin-dependent protein kinase kinase 1 (CAMKK1, Homo sapiens, UniProt Q8N5S9) | 101
Serine/threonine-protein kinase pim-1 (PIM1, Homo sapiens, UniProt P11309) | 97
Serine/threonine-protein kinase PAK 5 (PAK5, Homo sapiens, UniProt Q9P286) | 77.4
SRSF protein kinase 1 (SRPK1, Homo sapiens, UniProt Q96SB4) | 95.3
Tyrosine-protein kinase Fes/Fps (FES, Homo sapiens, UniProt P07332) | 108
Tyrosine-protein kinase JAK2 (JAK2, Homo sapiens, UniProt O60674) | 102

Repeated from above (sample 3):
Structure (SMILES) | viability [%]
Cc1cc(C(=O)N2CCCC(C(=O)Nc3cccc(-c4cc5ccccc5[nH]4)c3)C2)nn1C (centres unmarked) | 76
O=C(c1ccc(Br)cc1)N1N=CCC1(O)C(F)(F)F (centres unmarked) | 256
Cc1ccc(NC(=O)c2nc(S(=O)(=O)Cc3ccccc3)ncc2Cl)cc1C | 84
COc1ccccc1C(=O)N1C2CCC1c1cnc(-c3ccc(F)cc3)nc1C2 (centres unmarked) | 71
